Assay results gathered from unrelated publications.
Each line is one published result; not all experiments were run side by side. Several values in a cell are separate wells, animals, samples, runs or records. Numbers after ± are the reported error.

Compound = CNS(=O)(=O)Nc1nccc(Cc2c(C)c3ccc(Oc4ncccc4F)cc3oc2=O)c1F; cell line = OAW-42; assay = cell viability; conditions = 7 days; measurement = IC50; value = > 1 µM
Compound = Cn1ncc2cc(-c3cncc(Cl)c3N3CCC4(CCNC4=O)CC3)ccc21; cell line = LS174T; assay = gene expression, microarray, item: HDAC2 mRNA; conditions = concentration not given, 4 h; scale = reference: untreated cells; measurement = log2 fold change; value = 1.4
Compound = CN1CCCNC(=O)c2cccc(c2)C(=O)NCCCN(C)CCCNc2cccc3c2C(=O)c2cccc(c2C3=O)NCCC1; cell line = SAS; assay = RNA-Seq, item: DIMT1 mRNA; conditions = 1 µM, 6 h; scale = reference: untreated cells; measurement = log2 fold change; value = -0.68
Compound = COc1ccccc1-c1ccncc1C(=O)Nc1nnc(OCc2ccc(Cl)cc2)s1; cell line = MDA-MB-436; conditions = 1.5 µM; measurement = colony count; value = 13.5 and 9.5 and 12.5
Compound = CC(C)c1ccc(N(C)c2ccc3c(c2)OCC[C@H]3CNc2cnccc2C(=O)O)cc1; cell line = DMS-273; assay = cell viability, CellTiter-Glo; conditions = 7 days; measurement = IC50; value = 0.0222 µM
Compound = Cc1ncsc1-c1ccc(C(C)NC(=O)C2CC(O)CN2C(=O)C(NC(=O)CCCCCCCCCCN2CCCC(Nc3ncc(Cl)c(Nc4ccccc4S(=O)(=O)C(C)C)n3)C2)C(C)(C)C)cc1 (centres unmarked); cell line = 22Rv1; assay = RNA-seq, item: ZFP90 mRNA; conditions = concentration not given; scale = reference: DMSO; measurement = log2 fold change; value = -1.71
Compound = CCN(CC)CC(=O)Nc1cccc(-n2cc(-c3ccc4ccc(-c5cn(-c6cccc(NC(=O)CN(CC)CC)c6)nn5)cc4c3)nn2)c1; cell line = RCC4; assay = PCR angiogenesis array, item: CXCL1; conditions = 5 x IC50, 4 h, normoxia; scale = reference: untreated; measurement = fold regulation; value = -1.43
Compound = CNC(NN=Cc1ccc([N+](=O)[O-])o1)=[S+][Au-][Cl]; cell line = CAKI-1; assay = annexin V/PI flow cytometry; conditions = 15 µM, 72 h; measurement = cell fraction ANV−/PI+; value = 1.8 ± 0.5%

A few entries again:
Compound = Cn1ncc2cc(-c3cncc(Cl)c3N3CCC4(CCNC4=O)CC3)ccc21; cell line = LS174T; assay = gene expression, microarray, item: HDAC2 mRNA; conditions = concentration not given, 4 h; scale = reference: untreated cells; measurement = log2 fold change; value = 1.4
